Assay results gathered from unrelated publications.
A part holds a random share of what one study measured. Substitutions count along the parent as printed.

Set 1 — method: protein binding microarray; molecule type: double-stranded DNA, one strand shown; sample: in vitro; concentration: not given; baseline: not given; reading: higher = stronger binding; endpoint: E-score
Target: Histone acetyltransferase KAT6A, winged helix 2, GST fusion (KAT6A, Homo sapiens, UniProt Q92794, residues 85-181)
Notes: 8-mer, flanks averaged, mean of 2 arrays, mostly near background
Target sequence (chain): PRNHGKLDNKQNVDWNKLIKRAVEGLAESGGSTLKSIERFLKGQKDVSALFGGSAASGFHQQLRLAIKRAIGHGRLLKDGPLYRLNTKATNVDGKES
GGCGCCAA: 0.0566
CCAAATGA: -0.0998
AAAAAGGT: 0.0252
GACCAAAA: 0.193
CCATTGTA: -0.121
AAGACTAG: -0.221
AACTACGA: 0.0365
GCCCACTA: -0.0635
AGACATAC: -0.0481
CGGGCTTA: 0.0215
GAGGGTCC: -0.0315
CTGAGGTC: -0.024
CCTCGTTA: 0.0482
CACGCACG: -0.0426
ACTGGTAG: -0.0563
CGAACTGC: 0.0602
ATGGGGAC: 0.00484
AACCACGC: -0.121
AACACACT: -0.0731
TAACCTCA: -0.111
ATGTCCTG: -0.00788
ATCCTAGC: -0.0437
AACAATCG: -0.0989
CACGACTC: -0.0532
ATCGGCTA: -0.0134

Set 2 — target: NFE2, bZIP domain (human); method: DHFR protein complementation; sample: yeast; baseline: wild-type JUN-FOS pair; reading: higher = stronger binding; endpoint: binding fitness
Notes: single substitutions, most at no-binding floor
Starting sequence: JUN, bZIP domain (human); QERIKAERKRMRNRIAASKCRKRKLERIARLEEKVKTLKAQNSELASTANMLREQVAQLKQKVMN; partner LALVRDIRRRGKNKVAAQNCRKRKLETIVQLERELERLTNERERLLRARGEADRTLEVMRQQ
A49C: -1.38 natural log
T37M: -1.45 natural log
K39G: -1.47 natural log
T37W: -1.37 natural log
L52S: -1.52 natural log
M51K: -1.38 natural log
K34R: -1.43 natural log
T48V: -1.4 natural log
A29R: -1.32 natural log
I28D: -1.5 natural log
V35M: -1.48 natural log
E44M: -1.54 natural log
S47F: -1.4 natural log
K39F: -1.08 natural log
N42L: -1.47 natural log
E33T: -1.44 natural log
R30P: -1.43 natural log

Set 3 — method: RNA Bind-n-Seq; molecule type: RNA; sample: in vitro; concentration: not given; baseline: input RNA pool; reading: higher = stronger binding; endpoint: bound/input enrichment
Target: RING finger protein unkempt homolog, zinc fingers 1-6, GST-SBP tag (UNK, Homo sapiens, UniProt Q9C0B0, residues 30-357)
UniProt Q9C0B0, sequence (30-357, looked up): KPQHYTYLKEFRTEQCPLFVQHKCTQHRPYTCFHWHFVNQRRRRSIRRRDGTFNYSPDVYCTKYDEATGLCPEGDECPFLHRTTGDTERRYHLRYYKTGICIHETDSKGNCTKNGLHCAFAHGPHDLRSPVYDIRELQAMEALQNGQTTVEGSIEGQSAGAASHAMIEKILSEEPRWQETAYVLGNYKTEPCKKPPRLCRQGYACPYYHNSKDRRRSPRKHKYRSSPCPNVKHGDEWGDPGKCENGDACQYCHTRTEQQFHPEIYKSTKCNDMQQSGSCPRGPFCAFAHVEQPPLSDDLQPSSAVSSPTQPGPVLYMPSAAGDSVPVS
Notes: RNA with constant flanks, human and mouse sites, ends assumed
All sequences stand within: GGGAGUUCUACAGUCCGACGAUC … CAACAGAGGAUUGAGCAUCA
AUCCUUAUUAGUCAAAUAACGCUAUUCUUUUGUGGUUCUAGACCCUGGCUUCUAUCUCCCUGUGAUUUGUUUUAAUGCUGAAAUGACUUGGCUAUCCAAAGCUUCUAGUCUAGAGGUCUG: 1.64 ratio
AUUCAAAAGGCAGUGGCAGUUUCAUAGGACAGGUACAAGCAACAUCUUUUUUGGGUCCUAUAGUUACAGGAUAACUUCUUCAAGAGUUUCUCCAGCCACAUCCUUUGUUUUUCUGAACCC: 0.257 ratio
UGCUAGAAAACACAUUGUACUGUGCUUUUUCUGGAAUUCAGUAUAAUGGCAUCACUGCCUGUUUUUCACAUCUUUUGUUUCCUGUUCAUUUUAAGGAAACCUACUAAAUCCAGUUAAUAU: 0.409 ratio
CCACCGUCUUCAUCUCCUUUAGAACAAAGCACAGAGGAGGGAGUACACCUAAACCAGGCAGUCACGCUGGACGCUAACGAGGAAGAAAUGCUGGAGGUGAUGUCUGAUUCCGAGGAGAAU: 0.149 ratio
UAUGAUGAAAAUAUUAACAUUUCUAGAUUAAAAGUAUGACUGAUCUUUCGUUAUCCACUGUAGCAAGGUGAAAGCACACACAAUCGAAAUCCAUAGAUAAUCAGUGUUUAGCCUUCUCCU: 0.722 ratio
ACCAGUGAACCUGUACACAUUUUAAAGAGGUCUUUUGCAAGAACUGUCUCAGUGGAAUGUUUUGAGUCAUUGUUGAGUAUUCUUCACUGGAGCUGGACCACCUUAGUCUUAGGAGUUGAA: 4.46 ratio
AUGCUCUUAGAAGCUGAAAAUGACAAAGAGGUCGAAAUUCUUAAAGACAUCCGAGCACAUUUUAGCGCCAUGGUUGCCAACUUGAUCCAGUGUGUUCCAGUUCAUCACAGAAGAUUUCUC: 0.121 ratio
AGGAAAUGUUGUAAUCAUCCAUAUCUUAUAAAAGGUGCUGAGGAGAAAAUACUUGGAGAAUUUAGAGAUACUUACAAUCCAGCUGCUUCUGAUUUUCAUCUUCAAGCAAUGAUCCAGUCU: 0.344 ratio

Set 4 — target: CCND3, cyclin fold, Cln2 fusion (human); method: yeast growth competition, sequencing; sample: yeast; notes: weak parent motif; baseline: not given; reading: higher = stronger binding; endpoint: normalised enrichment score
Starting sequence: SGO1 docking peptide (human); PLAKRALKYTDEK; partner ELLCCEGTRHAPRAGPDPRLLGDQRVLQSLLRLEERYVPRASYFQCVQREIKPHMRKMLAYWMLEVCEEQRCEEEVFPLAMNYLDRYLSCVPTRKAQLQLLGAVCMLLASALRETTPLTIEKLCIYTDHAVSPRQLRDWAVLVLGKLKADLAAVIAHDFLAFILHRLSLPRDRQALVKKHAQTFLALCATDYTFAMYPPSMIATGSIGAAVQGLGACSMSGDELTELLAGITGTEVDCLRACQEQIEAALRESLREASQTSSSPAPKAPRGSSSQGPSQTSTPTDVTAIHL
PLAARALKYTDEK [K4A]: 0.0958
PLAKRALKYTAEK [D11A]: -0.0419
PLAKRALKYTDAK [E12A]: 0.247
PLAKAALKYTDEK [R5A]: 0.00451
PLAKRALKYADEK [T10A]: 0.098
PLAKRALKATDEK [Y9A]: 0.367

Set 5 — method: RNAcompete; molecule type: RNA; sample: in vitro; concentration: 20 nM; notes: 7-mer, probes averaged, single round; baseline: mean of 7-mers; reading: higher = stronger binding; endpoint: 7-mer Z-score
Target: PABPC1L2, full length, GST fusion (mouse, UniProt A0ABA7IW68)
Residues (chain): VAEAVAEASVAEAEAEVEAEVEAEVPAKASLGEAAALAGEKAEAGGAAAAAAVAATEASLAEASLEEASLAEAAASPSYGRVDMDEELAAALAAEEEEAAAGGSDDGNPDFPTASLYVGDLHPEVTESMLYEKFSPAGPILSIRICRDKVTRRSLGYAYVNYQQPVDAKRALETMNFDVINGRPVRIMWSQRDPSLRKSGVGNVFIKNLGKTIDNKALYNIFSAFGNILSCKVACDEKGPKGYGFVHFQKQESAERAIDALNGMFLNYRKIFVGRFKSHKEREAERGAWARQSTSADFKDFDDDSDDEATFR
GGAUUCU: -0.182
CGGUUUG: -0.476
AGAGGCU: 0.0551
UGGGACA: 0.254
UUUAGAC: -0.0337
GUGUGCG: -0.0935
GACAAAG: 0.591
GAGAGUA: -0.11
GCAUACC: -0.38
UGGAAUG: -0.0464
UCUCGCG: -0.454
AAUCCGA: 0.0261
CUUGGUG: 0.0352
GCGCCAU: -0.215
UUGACCA: 0.0968
AACGAGC: 0.287
AUUUCAA: -0.00289
CCGAUGU: -0.293
UAAGACC: 0.00798
AAGUCAA: 0.0895
CUGACAU: -0.179

Set 6 — method: RNA Bind-n-Seq; molecule type: RNA; sample: in vitro; concentration: 365 nM; baseline: no-protein control; reading: higher = stronger binding; endpoint: RBNS enrichment (R)
Target: RNA binding protein fox-1 homolog 2, RRM domain, GST-SBP tag (RBFOX2, Homo sapiens, UniProt O43251-10, residues 100-194)
Notes: natural RNA segment, single round, ends assumed
All sequences stand within: GGGAGUUCUACAGUCCGACGAUC … UGGAAUUCUCGGGUGCCAA
Target sequence (chain): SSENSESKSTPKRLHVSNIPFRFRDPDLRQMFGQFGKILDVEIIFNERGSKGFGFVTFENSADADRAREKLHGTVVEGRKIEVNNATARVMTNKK
ACUUAGUGGUUUUCUCUAUUUUGAAAUUUUUUGAUCAAAAACUGAUUAGUGAAUAUAGUUUGGAGUUUGGCUUCGUGUCCUGGGUUCUUCCCCGUCCCUUUUCUGUCAGC: 0.672
GUGUCUUGCCUUUUAAUCAUGAACAGUUACAUGAUUUAUAAUUUCACUGAUUGAGAUUACUUUGUAAGUAGCUGUUCAGAAGAAUAAAAUAUGACUGUUUUAGGGACUAG: 0.321
UAUUGCUCUUCUGAAGUAAGAUUUUUCUACACCGGUAGCCUUCGCUGUCUGUCAGUCAGGACCUUCUGGUAUAGGUGAUGUAAAAUAACCGUACAAUAUUAAUGCAUGCG: 10.1
UUAAAAAAUAUUCUGUUACACUACAGAUACCAAAACACUGACAAAGAUUUAGGCACUCCAAGAGAGUAUGACUUCGUGUUUAAUUGGGGAGCUUGUUUUCAACAUUGCUU: 0.395
ACCGGAAAGGUGGCCCCAGCUGUUGACUUCCAGUCACUGUCCCAGACGGCACAAGGUUUUCUGUAGGAAAGCUGCCAUUGCCCCGGCCCCUUUUCUUCCUUUGUCCCGUU: 0.305
AAGUGCUGGGAUUAAAGGCGUGGGCCACCACGCCCGGCUCAAAAAUACAUUUCUUAAAGUUGAAAUCAUUUGCUUCUUCCAUAAUGGGACGUUGAAACUUCUGCUUUCGG: 0.233
UCUUGGAAAGGUUCUAUUCCUGAUCUCCAGCUGUGGUGAGCAAGUUUCCUGAAGUGUUUAUUUUCUCUCAUAUCCACCAAACGUGAAUCCUGUUCCUGAUGGCCCGUUAU: 0.418
UGGGAGAUACAAUUCCAAGUUCUCGCUUCCUCCUUUGGGCAUCUCUUCUGCCUCCCAAUCAAGGAAGCUCCAUGCUCAGGCUCUCAGCUCUCGGGCCAGUGCUCUGCUCU: 0.162

Further values, each from its own experiment
PhoQ, residues 284 288 289 292 302 303 TLASMF — fold induction (PhoP, residues 12 14 15 18 19 AQCLL (Escherichia coli, UniProt P23836); Sort-seq, measured: YFP reporter; E. coli; PhoQ-PhoP variant library, together with: 10 µM Mg2+; baseline: high Mg2+ state, higher = stronger signaling): 4.71

Excerpt of the above (set 3):
AUCCUUAUUAGUCAAAUAACGCUAUUCUUUUGUGGUUCUAGACCCUGGCUUCUAUCUCCCUGUGAUUUGUUUUAAUGCUGAAAUGACUUGGCUAUCCAAAGCUUCUAGUCUAGAGGUCUG: 1.64 ratio
CCACCGUCUUCAUCUCCUUUAGAACAAAGCACAGAGGAGGGAGUACACCUAAACCAGGCAGUCACGCUGGACGCUAACGAGGAAGAAAUGCUGGAGGUGAUGUCUGAUUCCGAGGAGAAU: 0.149 ratio
UAUGAUGAAAAUAUUAACAUUUCUAGAUUAAAAGUAUGACUGAUCUUUCGUUAUCCACUGUAGCAAGGUGAAAGCACACACAAUCGAAAUCCAUAGAUAAUCAGUGUUUAGCCUUCUCCU: 0.722 ratio
ACCAGUGAACCUGUACACAUUUUAAAGAGGUCUUUUGCAAGAACUGUCUCAGUGGAAUGUUUUGAGUCAUUGUUGAGUAUUCUUCACUGGAGCUGGACCACCUUAGUCUUAGGAGUUGAA: 4.46 ratio
AGGAAAUGUUGUAAUCAUCCAUAUCUUAUAAAAGGUGCUGAGGAGAAAAUACUUGGAGAAUUUAGAGAUACUUACAAUCCAGCUGCUUCUGAUUUUCAUCUUCAAGCAAUGAUCCAGUCU: 0.344 ratio
AUGCUCUUAGAAGCUGAAAAUGACAAAGAGGUCGAAAUUCUUAAAGACAUCCGAGCACAUUUUAGCGCCAUGGUUGCCAACUUGAUCCAGUGUGUUCCAGUUCAUCACAGAAGAUUUCUC: 0.121 ratio
